Results of several laboratories.
A part holds a random share of what one study measured. Changes are numbered by the printed parent chain.
Chain of UniProt Q96J92 (whole entry, looked up): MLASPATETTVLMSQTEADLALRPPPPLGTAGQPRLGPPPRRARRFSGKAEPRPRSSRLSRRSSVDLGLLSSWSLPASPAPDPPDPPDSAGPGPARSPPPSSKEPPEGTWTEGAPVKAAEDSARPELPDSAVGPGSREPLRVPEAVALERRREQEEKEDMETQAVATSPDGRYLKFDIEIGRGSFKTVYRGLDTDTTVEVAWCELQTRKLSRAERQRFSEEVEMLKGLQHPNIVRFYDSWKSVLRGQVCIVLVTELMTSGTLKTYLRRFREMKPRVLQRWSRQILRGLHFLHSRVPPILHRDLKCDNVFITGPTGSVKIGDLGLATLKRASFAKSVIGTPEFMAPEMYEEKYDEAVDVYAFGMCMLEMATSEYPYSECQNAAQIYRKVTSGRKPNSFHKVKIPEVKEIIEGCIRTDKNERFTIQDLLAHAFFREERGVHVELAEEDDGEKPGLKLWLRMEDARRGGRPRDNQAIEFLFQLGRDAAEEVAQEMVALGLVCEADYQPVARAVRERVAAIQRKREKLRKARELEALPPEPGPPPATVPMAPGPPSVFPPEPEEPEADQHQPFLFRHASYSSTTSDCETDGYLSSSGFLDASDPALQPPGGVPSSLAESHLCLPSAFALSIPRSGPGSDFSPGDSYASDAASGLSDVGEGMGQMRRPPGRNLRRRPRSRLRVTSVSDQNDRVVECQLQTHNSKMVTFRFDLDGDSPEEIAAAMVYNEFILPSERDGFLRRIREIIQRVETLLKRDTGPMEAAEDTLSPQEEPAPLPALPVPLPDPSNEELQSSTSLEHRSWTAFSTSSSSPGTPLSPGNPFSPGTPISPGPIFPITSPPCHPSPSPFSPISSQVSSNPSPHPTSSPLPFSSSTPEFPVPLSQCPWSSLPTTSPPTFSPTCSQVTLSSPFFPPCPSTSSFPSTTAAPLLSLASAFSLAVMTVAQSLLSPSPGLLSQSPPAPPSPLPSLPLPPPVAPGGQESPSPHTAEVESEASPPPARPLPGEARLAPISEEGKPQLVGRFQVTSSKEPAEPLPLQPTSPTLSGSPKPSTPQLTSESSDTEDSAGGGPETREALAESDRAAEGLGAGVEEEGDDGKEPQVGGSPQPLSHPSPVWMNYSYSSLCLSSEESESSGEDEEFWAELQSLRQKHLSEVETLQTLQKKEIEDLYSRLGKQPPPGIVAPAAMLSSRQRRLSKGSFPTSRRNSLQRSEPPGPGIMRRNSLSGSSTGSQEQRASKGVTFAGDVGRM
Chain of UniProt Q9UBE8 (whole entry, looked up): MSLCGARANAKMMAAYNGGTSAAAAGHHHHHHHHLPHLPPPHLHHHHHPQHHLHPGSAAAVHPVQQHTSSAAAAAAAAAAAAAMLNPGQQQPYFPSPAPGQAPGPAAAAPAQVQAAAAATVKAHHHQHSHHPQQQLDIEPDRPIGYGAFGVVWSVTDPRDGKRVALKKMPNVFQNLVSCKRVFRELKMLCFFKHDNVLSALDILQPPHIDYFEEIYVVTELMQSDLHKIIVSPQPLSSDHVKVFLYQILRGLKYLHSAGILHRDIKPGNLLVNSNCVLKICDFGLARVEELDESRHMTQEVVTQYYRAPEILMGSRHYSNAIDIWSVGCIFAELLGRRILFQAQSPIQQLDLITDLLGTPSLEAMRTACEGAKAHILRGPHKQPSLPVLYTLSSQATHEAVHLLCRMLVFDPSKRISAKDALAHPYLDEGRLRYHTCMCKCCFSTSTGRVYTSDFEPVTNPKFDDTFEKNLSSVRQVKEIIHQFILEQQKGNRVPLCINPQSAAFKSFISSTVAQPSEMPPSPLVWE
Chain of UniProt P00519 (whole entry, looked up): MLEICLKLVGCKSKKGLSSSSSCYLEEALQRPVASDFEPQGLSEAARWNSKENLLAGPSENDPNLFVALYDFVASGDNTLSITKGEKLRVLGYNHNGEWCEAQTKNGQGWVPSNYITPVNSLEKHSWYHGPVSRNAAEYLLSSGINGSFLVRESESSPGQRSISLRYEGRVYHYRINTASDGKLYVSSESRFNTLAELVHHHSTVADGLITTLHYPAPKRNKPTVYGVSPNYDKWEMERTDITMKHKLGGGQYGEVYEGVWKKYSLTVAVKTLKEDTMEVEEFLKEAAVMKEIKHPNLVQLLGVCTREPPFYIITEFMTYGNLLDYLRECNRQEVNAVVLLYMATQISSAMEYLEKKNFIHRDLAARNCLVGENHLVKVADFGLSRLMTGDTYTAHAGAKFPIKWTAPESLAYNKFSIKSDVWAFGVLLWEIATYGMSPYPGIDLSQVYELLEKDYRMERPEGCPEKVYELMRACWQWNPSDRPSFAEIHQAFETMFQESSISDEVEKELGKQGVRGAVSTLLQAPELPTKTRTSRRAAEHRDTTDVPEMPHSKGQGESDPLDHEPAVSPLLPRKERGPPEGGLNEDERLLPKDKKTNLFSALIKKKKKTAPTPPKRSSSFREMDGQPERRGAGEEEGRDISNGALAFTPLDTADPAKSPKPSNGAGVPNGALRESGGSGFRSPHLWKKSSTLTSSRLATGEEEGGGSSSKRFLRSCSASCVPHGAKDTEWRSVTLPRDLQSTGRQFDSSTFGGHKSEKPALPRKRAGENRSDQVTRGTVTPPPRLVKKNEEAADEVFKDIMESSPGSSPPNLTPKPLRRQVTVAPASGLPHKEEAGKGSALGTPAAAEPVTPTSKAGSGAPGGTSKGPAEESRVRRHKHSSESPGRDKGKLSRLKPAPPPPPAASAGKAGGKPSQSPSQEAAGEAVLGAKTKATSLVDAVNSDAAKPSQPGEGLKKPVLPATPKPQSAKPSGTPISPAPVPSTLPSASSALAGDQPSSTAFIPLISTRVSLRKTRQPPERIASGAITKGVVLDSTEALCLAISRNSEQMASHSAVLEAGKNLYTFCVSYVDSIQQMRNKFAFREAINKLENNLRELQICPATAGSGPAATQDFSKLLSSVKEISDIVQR
Chain of UniProt Q13237 (whole entry, looked up): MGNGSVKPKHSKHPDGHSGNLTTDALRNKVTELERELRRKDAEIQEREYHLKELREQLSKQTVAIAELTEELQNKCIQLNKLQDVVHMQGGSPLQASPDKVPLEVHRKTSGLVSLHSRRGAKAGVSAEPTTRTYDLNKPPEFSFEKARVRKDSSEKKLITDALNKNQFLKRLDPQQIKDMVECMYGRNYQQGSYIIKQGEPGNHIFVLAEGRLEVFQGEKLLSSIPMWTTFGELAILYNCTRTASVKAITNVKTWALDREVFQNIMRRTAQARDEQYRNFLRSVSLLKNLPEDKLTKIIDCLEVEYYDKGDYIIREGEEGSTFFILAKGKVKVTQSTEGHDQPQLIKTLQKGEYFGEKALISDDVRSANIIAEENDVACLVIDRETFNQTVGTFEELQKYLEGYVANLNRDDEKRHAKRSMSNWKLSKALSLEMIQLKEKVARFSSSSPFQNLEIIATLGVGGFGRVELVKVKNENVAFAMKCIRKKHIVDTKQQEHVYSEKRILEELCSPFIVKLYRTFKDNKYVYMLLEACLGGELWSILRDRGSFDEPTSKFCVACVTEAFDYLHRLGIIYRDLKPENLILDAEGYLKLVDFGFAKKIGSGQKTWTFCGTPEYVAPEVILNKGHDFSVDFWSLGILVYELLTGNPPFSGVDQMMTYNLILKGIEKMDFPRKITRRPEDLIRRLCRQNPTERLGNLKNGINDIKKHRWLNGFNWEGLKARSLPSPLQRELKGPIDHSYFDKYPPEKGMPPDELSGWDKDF
Chain of UniProt Q9HC98 (whole entry, looked up): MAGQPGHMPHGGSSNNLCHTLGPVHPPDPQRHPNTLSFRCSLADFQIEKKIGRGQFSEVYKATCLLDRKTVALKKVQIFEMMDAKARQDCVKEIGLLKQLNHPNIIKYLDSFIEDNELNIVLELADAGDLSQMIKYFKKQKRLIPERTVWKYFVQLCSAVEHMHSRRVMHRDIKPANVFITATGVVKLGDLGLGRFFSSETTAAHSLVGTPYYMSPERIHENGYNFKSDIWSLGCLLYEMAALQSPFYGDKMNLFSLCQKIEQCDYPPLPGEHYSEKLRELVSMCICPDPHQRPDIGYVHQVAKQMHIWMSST

Study 1 — observed: enzyme activity; action: inhibitor; tested at: 0.5 µM; baseline: control; measurement: remaining activity
Target: MAP kinase-activated protein kinase 3 (MAPKAPK3, Homo sapiens, UniProt Q16644)
Chain of UniProt Q16644 (whole entry, looked up): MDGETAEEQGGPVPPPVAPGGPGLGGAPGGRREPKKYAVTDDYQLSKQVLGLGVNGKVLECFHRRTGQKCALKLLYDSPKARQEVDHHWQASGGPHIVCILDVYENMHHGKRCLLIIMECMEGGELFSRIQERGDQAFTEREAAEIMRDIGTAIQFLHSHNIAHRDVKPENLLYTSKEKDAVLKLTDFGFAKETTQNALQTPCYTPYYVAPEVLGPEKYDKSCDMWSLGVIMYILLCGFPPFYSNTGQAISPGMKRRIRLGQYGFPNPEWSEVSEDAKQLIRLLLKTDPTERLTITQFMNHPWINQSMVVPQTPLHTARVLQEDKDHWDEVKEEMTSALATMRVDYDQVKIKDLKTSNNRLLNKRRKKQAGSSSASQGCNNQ
OCC(O)CCON=C1C(c2c(O)[nH]c3ccccc23)=Nc2ccccc21 (stereo not drawn): 98.9%
Cn1sc(=O)n(Cc2ccccc2)c1=O: 105%
Cn1c2ccccc2c2c3c(c4c5ccccc5n(CCC#N)c4c21)CNC3=O: 83.7%
CC(C)[C@H](CO)Nc1nc(Nc2cc(N)cc(Cl)c2)c2ncn(C(C)C)c2n1: 98.4%
CCOC(=O)c1c(C)[nH]c(/C=C2\C(=O)Nc3ccccc32)c1C: 91.7%
O=C1NC(=O)C(c2cn(CCCO)c3ncccc23)=C1c1cnccn1: 103%
O=C1NC(=O)C(c2cn(CCCn3ccnc3)c3ccccc23)=C1Nc1ccccc1: 92.4%
Oc1ccc(-c2nc(-c3ccncc3)c(-c3ccc(F)cc3)[nH]2)cc1: 101%
Nc1ncnc2n[nH]c(Nc3ccc(F)cc3)c12: 94%
O=C(O)c1ccc2c3c1cccc3c(=O)n1c3ccccc3nc21: 103%
COc1ccc(C(=O)Nc2sc3c(c2C(N)=O)CCCC3)cc1OC: 97.2%
C#Cc1cccc(Nc2ncnc3cc(OCCOC)c(OCCOC)cc23)c1: 98.1%
Nc1[nH]nc2nc3ccccc3nc12: 101%
Nc1ccc2ncnc(NCCc3ccc(Oc4ccccc4)cc3)c2c1: 101%
O=C(Nc1cccc(Nc2cc(Nc3cccc(C(F)(F)F)c3)ncn2)c1)C1CC1: 104%
N#CC(C#N)=C(N)/C(C#N)=C/c1ccc(O)cc1: 99.9%

Study 2 — technique: competition with immobilised ligand; tested at: 1 µM; measurement: remaining binding
Compound: Cc1c(NC(=O)c2cc(C(N)=O)nc3cc(F)ccc23)c(C(F)(F)F)nn1Cc1ccc(C#N)cc1
Ephrin type-A receptor 1 (EPHA1, Homo sapiens, UniProt P21709); cell-free assay: 74%
Serine/threonine-protein kinase Nek7 (NEK7, Homo sapiens, UniProt Q8TDX7); cell-free assay: 99%
cGMP-dependent protein kinase 2 (PRKG2, Homo sapiens, UniProt Q13237); cell-free assay: 74%
Serine/threonine-protein kinase NLK (NLK, Homo sapiens, UniProt Q9UBE8); binding: 100%
Activin receptor type-2A (ACVR2A, Homo sapiens, UniProt P27037); cell-free assay: 97%
Receptor-type tyrosine-protein kinase FLT3 (FLT3, Homo sapiens, UniProt P36888, K663Q); cell-free assay: 93%
Serine/threonine-protein kinase Nek6 (NEK6, Homo sapiens, UniProt Q9HC98); cell-free assay: 100%
Myosin light chain kinase 2, skeletal/cardiac muscle (MYLK2, Homo sapiens, UniProt Q9H1R3); binding: 90%
ALK tyrosine kinase receptor (ALK, Homo sapiens, UniProt Q9UM73, C1156Y); cell-free assay: 98%
Tyrosine-protein kinase ABL1, phosphorylated (ABL1, Homo sapiens, UniProt P00519); cell-free assay: 78%
Serine/threonine-protein kinase WNK4 (WNK4, Homo sapiens, UniProt Q96J92); cell-free assay: 0%
Receptor-type tyrosine-protein kinase FLT3 (FLT3, Homo sapiens, UniProt P36888, D835V); cell-free assay: 100%
Discoidin domain-containing receptor 2 (DDR2, Homo sapiens, UniProt Q16832); cell-free assay: 66%
Insulin receptor-related protein (INSRR, Homo sapiens, UniProt P14616); cell-free assay: 92%
Receptor-type tyrosine-protein kinase FLT3 (FLT3, Homo sapiens, UniProt P36888, ITD); cell-free assay: 95%
Vascular endothelial growth factor receptor 1 (FLT1, Homo sapiens, UniProt P17948); cell-free assay: 98%

Study 3 — technique: RNA Bind-n-Seq; form: RNA; medium: in vitro; tested at: 200 nM; notes: whole 134-nt RNA, ends assumed; added: 150 mM LiCl; baseline: input library; reading: higher = stronger binding; measurement: log2 enrichment; each molecule: 7-deaza-guanosine replaces G
Target: Ras GTPase-activating protein-binding protein 1, full length (G3BP1, Homo sapiens, UniProt Q13283)
Chain of UniProt Q13283 (whole entry, looked up): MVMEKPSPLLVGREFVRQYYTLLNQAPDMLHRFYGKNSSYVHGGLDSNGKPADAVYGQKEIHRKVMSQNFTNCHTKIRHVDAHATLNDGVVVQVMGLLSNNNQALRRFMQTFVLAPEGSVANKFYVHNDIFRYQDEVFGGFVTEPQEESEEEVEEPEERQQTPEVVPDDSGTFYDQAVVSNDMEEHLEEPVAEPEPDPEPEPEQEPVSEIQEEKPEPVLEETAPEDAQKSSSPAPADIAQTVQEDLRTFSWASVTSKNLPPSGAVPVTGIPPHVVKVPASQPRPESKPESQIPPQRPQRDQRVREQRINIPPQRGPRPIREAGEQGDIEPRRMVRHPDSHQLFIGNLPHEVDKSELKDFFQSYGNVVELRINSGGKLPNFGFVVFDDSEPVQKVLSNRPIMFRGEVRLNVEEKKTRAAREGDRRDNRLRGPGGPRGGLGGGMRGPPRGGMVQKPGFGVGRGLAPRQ
Shared flanks, not repeated: GGGAGUUCUACAGUCCGACGAUC … UGGAAUUCUCGGGUGUCAAGG
CUCAAGUCCUGUGCUACACAUCGUAUGUACCGAAUCGGCCCGGCCCGGCCCGGGAAAGUAUUAUGUUACGCCGUUCGGAUCUGCACUUCC: 0.504
UGGCCCUGGUGGCAUGCGGGGAGGAAGUGGUGGCCUCAUGGAUCGUGGUGGUCCCGGUGGAAUGUUCAGAGGUGGCCGUGGUGGAGACAG: 0.114
CCUCAAGUCCUGUGCUACACAUCGUAUGUACCGAAUCGGGUGGUGGGUGGGGAAAGUAUUAUGUUACGCCGUUCGGAUCUGCACUUCCAG: -0.0101
CUCAAGUCCUGUGCUACACAUCGUAUGUACCGAAUCGGAGGUUUGGUUUUUGGAAAGUAUUAUGUUACGCCGUUCGGAUCUGCACUUCCA: 0.0657
AGUCCUGUGCUACACAUCGUAUGUACCGAAUCGGUUUUUGGUUUUUUUGGUUUUUGGAAAGUAUUAUGUUACGCCGUUCGGAUCUGCACU: -1.07
GUCCUGUGCUACACAUCGUAUGUACCGAAUCGGGCCCCCGGCCCCCGGGGCCCCCGGGAAAGUAUUAUGUUACGCCGUUCGGAUCUGCAC: -1.63
UCGGAUGGCUUCGCAUUUCCCCAAUACCCCAUUAAACCGUAUCAUCUGAAGAGGAUCCACAGAGCUGUCUUACAUGGUAAUCUAGAGAAA: 0.96
GUCCUGUGCUACACAUCGUAUGUACCGAAUCGGGGAAAGGGGAGGGGAAAAAAAGGGGAAAGUAUUAUGUUACGCCGUUCGGAUCUGCAC: 0.683

Study 4 — target: CRIPT, C-terminal peptide; technique: DHFR complementation, deep sequencing; medium: yeast; baseline: wild type; reading: higher = weaker binding; measurement: binding free energy change
Notes: single substitutions, model-inferred values
Starting sequence: ERBIN, PDZ domain 1 (human); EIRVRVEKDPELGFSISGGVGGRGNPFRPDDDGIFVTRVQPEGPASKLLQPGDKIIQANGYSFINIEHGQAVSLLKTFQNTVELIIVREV; partner TKNYKQTSV
V4S: 0.618 kcal/mol
V72P: 1.76 kcal/mol
Y61I: 0.0379 kcal/mol
E67W: 0.457 kcal/mol
G22D: -0.334 kcal/mol
G24Y: 1.58 kcal/mol
T81C: 0.12 kcal/mol
D53R: 0.925 kcal/mol

Repeated from above (study 1):
Oc1ccc(-c2nc(-c3ccncc3)c(-c3ccc(F)cc3)[nH]2)cc1: 101%
Nc1ncnc2n[nH]c(Nc3ccc(F)cc3)c12: 94%
O=C(O)c1ccc2c3c1cccc3c(=O)n1c3ccccc3nc21: 103%
COc1ccc(C(=O)Nc2sc3c(c2C(N)=O)CCCC3)cc1OC: 97.2%
C#Cc1cccc(Nc2ncnc3cc(OCCOC)c(OCCOC)cc23)c1: 98.1%
Nc1[nH]nc2nc3ccccc3nc12: 101%
Nc1ccc2ncnc(NCCc3ccc(Oc4ccccc4)cc3)c2c1: 101%
